Results pooled from the literature.
Protocols differ between the studies behind these lines. Numbers after ± are the reported error. In brackets after ≈: the same amount, converted by molar mass.

SMILES = CC[C@@H]1NC(=O)[C@H]([C@H](O)[C@H](C)Cc2nc3ccc(C(=O)OC)cc3[nH]2)N(C)C(=O)[C@H](C(C)C)N(C)C(=O)[C@H](CC(C)C)N(C)C(=O)[C@H](CC(C)C)N(C)C(=O)[C@@H](C)NC(=O)[C@H](C)NC(=O)[C@H](CC(C)C)N(C)C(=O)[C@H](C(C)C)NC(=O)[C@H](CC(C)C)N(C)C(=O)CN(C)C1=O; organism = HCoV-NL63; assay = Western blot; system = Caco-2; quantity = concentration abolishing N protein; result = > 5 µM
SMILES = CC[C@H](C)[C@H](NC(=O)[C@H](CCCCN)NC(=O)[C@H](CCCCN)NC(=O)[C@H](CC(C)C)NC(=O)[C@H](CCCCN)NC(=O)[C@H](CCC(=O)O)NC(=O)[C@H](CCCCN)NC(=O)[C@@H](NC(=O)[C@H](CCCCN)NC(=O)[C@H](CC(N)=O)NC(=O)[C@H](CCCNC(=N)N)NC(=O)[C@H](Cc1ccccc1)NC(=O)[C@H](CCCCN)NC(=O)[C@H](CCCNC(=N)N)NC(=O)[C@H](CC(C)C)NC(=O)[C@H](CCCNC(=N)N)NC(=O)[C@H](CCCCN)NC(=O)[C@H](CCCNC(=N)N)NC(=O)[C@@H](N)CC(C)C)[C@@H](C)CC)C(=O)NCC(=O)N[C@@H](CCC(N)=O)C(=O)N[C@@H](CCCCN)C(=O)N[C@H](C(=O)N[C@@H](CCC(N)=O)C(=O)NCC(=O)N[C@@H](Cc1ccccc1)C(=O)N[C@H](C(=O)N1CCC[C@H]1C(=O)N[C@@H](CCCCN)C(=O)N[C@@H](CC(C)C)C(=O)O)C(C)C)[C@@H](C)CC; organism = Micrococcus luteus; assay = inhibition zone; system = CGMCC 1.029; quantity = lethal concentration; result = 0.9 µM
SMILES = CC(C)C(C(=O)N[C@@H](Cc1ccccc1)[C@H](O)CN1CCN(Cc2ccc(Br)cc2)CC1)N1C(=O)c2ccccc2C1=O (stereo partly drawn); organism = Plasmodium berghei; system = mice, liver-stage infection; setting = 50 mg/kg, 240 h; quantity = mean survival time; result = ~16.5 days
SMILES = CCCCc1ccc(-c2nc(C)c(C(C)=NNC(=N)N)s2)cc1; organism = Staphylococcus aureus; system = VRS5 VRSA; quantity = MBC; result = 1.3 µg/mL (≈ 3.95 µM)
SMILES = C#CCCCCOP(=O)(O)Oc1c2c(c(OP(=O)(O)OCCCCC#C)c3c1C1CC3c3cc4c(cc31)C1CC4c3ccccc31)C1CC2c2cc3c(cc21)C1CC3c2ccccc21; organism = measles virus; assay = viral infection, flow cytometry; system = A549, vaccine strain GFP; setting = 2 days, virus pre-incubated 30 min 37 °C; quantity = IC50; result = 41.3 µM
SMILES = COc1ccccc1-c1n[nH]c2nc(N[C@H]3CC[C@H](NS(=O)(=O)CC(C)C)CC3)ncc12; organism = Leishmania donovani; system = LdBOB CRK12 single-allele knock-out; setting = promastigotes; scale = relative to: wild type, higher = more sensitive; quantity = sensitivity fold; result = ~2 fold
SMILES = O=P(O)(OCCc1ccccc1)Oc1c2c(c(OP(=O)(O)OCCc3ccccc3)c3c1C1CC3c3cc4c(cc31)C1CC4c3ccccc31)C1CC2c2cc3c(cc21)C1CC3c2ccccc21; organism = measles virus; assay = viral infection, flow cytometry; system = A549, vaccine strain GFP; setting = 2 days, virus pre-incubated 30 min 37 °C; quantity = IC50; result = 1.9 µM
SMILES = CC(C)C[C@H](NC(=O)[C@H](CC(=O)O)NC(=O)[C@H](CC(C)C)NC(=O)[C@H](CC(=O)O)NC(=O)CNC(=O)[C@@H]1CCCN1C(=O)[C@H](CCCCN)NC(=O)[C@H](CC(C)C)NC(=O)[C@H](Cc1c[nH]c2ccccc12)NC(=O)[C@@H]1CCCN1)C(=O)O; organism = dengue virus 2; system = LLC-MK2, New Guinea C; setting = 500 µM; scale = relative to: untreated; quantity = plaque reduction; result = 40.6 ± 24.8%
SMILES = CC[C@H](C)[C@H](NC(=O)[C@H](CCCCN)NC(=O)[C@H](CCCCN)NC(=O)[C@H](CC(C)C)NC(=O)[C@H](CCCCN)NC(=O)[C@H](CCC(=O)O)NC(=O)[C@H](CCCCN)NC(=O)[C@@H](NC(=O)[C@H](CCCCN)NC(=O)[C@H](CC(N)=O)NC(=O)[C@H](CCCNC(=N)N)NC(=O)[C@H](Cc1ccccc1)NC(=O)[C@H](CCCCN)NC(=O)[C@H](CCCNC(=N)N)NC(=O)[C@H](CC(C)C)NC(=O)[C@H](CCCNC(=N)N)NC(=O)[C@H](CCCCN)NC(=O)[C@H](CCCNC(=N)N)NC(=O)[C@H](CC(C)C)NC(=O)CN)[C@@H](C)CC)C(=O)NCC(=O)N[C@@H](CCC(N)=O)C(=O)N[C@@H](CCCCN)C(=O)N[C@H](C(=O)N[C@@H](CCC(N)=O)C(=O)NCC(=O)N[C@@H](Cc1ccccc1)C(=O)N[C@H](C(=O)N1CCC[C@H]1C(=O)N[C@@H](CCCCN)C(=O)N[C@@H](CC(C)C)C(=O)N[C@@H](C)C(=O)N1CCC[C@H]1C(=O)N[C@@H](CCCNC(=N)N)C(=O)N[C@H](C(=O)N[C@@H](CC(=O)O)C(=O)N[C@@H](Cc1ccc(O)cc1)C(=O)O)[C@@H](C)O)C(C)C)[C@@H](C)CC; organism = Bacillus megaterium; assay = inhibition zone; system = CGMCC 1.046; quantity = lethal concentration; result = 1.4 µM
SMILES = COc1ccc(Br)cc1/C=N/NC(=O)Cn1ccc(=O)c2ccccc21; organism = Alternaria solani; assay = microbial growth; setting = 50 µg/mL; quantity = inhibition; result = 30.8%
SMILES = N=C(N)NCCC[C@H](NC(=O)[C@H](Cc1c[nH]c2ccccc12)NC(=O)[C@H](CCCNC(=N)N)NC(=O)[C@H](CCCNC(=N)N)NC(=O)[C@@H]1CCCN1C(=O)[C@H](CCCCN)NC(=O)[C@@H](N)CCCNC(=N)N)C(=O)N[C@@H](Cc1c[nH]c2ccccc12)C(=O)N[C@@H](Cc1c[nH]c2ccccc12)C(=O)N1CCC[C@H]1C(=O)N[C@@H](CCCCN)C(=O)N[C@@H](CCCNC(=N)N)C(=O)N1CCC[C@H]1C(=O)O; organism = Staphylococcus aureus; system = 09057, BALB/c mice, sepsis, liver, kidney, spleen, lungs; setting = intraperitoneal, 20 mg/kg, 12 h, dosed 1 h post-infection; scale = relative to: saline; quantity = reduction of organ bacterial load; result = 0.44 to 1.15 log CFU/g
SMILES = CCCCCCCCCCCCCC(=O)N[C@H](CCN)C(=O)N[C@@H]1C(=O)N[C@@H](CCN)C(=O)N[C@@H](CC(C)C)C(=O)N[C@@H](CCN)C(=O)N[C@H](Cc2ccccc2)C(=O)N[C@@H](CC(C)C)C(=O)N[C@@H](CCN)C(=O)N[C@H](CCN)C(=O)N[C@@H](C(C)C)C(=O)N[C@@H](CC(=O)O)C(=O)O[C@@H]1C; organism = Neisseria gonorrhoeae; system = ATCC 31426, neutropenic mice, vaginal infection; setting = subcutaneous, 20 mg/kg/day, 3 days; quantity = reduction in bacterial burden; result = 2.83 log10 CFU
SMILES = Nc1ccn(C[C@@H](CO)OCP(=O)(O)OCCCS(=O)(=O)CCCCCCCCCCCCCC2CCC2)c(=O)n1; organism = Betapolyomavirus hominis; assay = qPCR; system = Gardner; scale = relative to: CC50 over EC50; quantity = selectivity index; result = 70
SMILES = CC[C@H](C)[C@H](NC(=O)[C@H](CCCCN)NC(=O)[C@H](CCCCN)NC(=O)[C@H](CC(C)C)NC(=O)[C@H](CCCCN)NC(=O)[C@H](CCC(=O)O)NC(=O)[C@H](CCCCN)NC(=O)[C@@H](NC(=O)[C@H](CCCCN)NC(=O)[C@H](CC(N)=O)NC(=O)[C@H](CCCNC(=N)N)NC(=O)[C@H](Cc1ccccc1)NC(=O)[C@H](CCCCN)NC(=O)[C@H](CCCNC(=N)N)NC(=O)[C@H](CC(C)C)NC(=O)[C@H](CCCNC(=N)N)NC(=O)[C@H](CCCCN)NC(=O)[C@H](CCCNC(=N)N)NC(=O)[C@H](CC(C)C)NC(=O)[C@@H](N)CCCNC(=N)N)[C@@H](C)CC)C(=O)NCC(=O)N[C@@H](CCC(N)=O)C(=O)N[C@@H](CCCCN)C(=O)N[C@H](C(=O)N[C@@H](CCC(N)=O)C(=O)NCC(=O)N[C@@H](Cc1ccccc1)C(=O)N[C@H](C(=O)N1CCC[C@H]1C(=O)N[C@@H](CCCCN)C(=O)N[C@@H](CC(C)C)C(=O)N[C@@H](CCC(N)=O)C(=O)N1CCC[C@H]1C(=O)N[C@@H](CO)C(=O)N[C@@H](CCCCN)C(=O)N[C@@H](CCC(N)=O)C(=O)N[C@@H](CO)C(=O)O)C(C)C)[C@@H](C)CC; organism = Salmonella; assay = inhibition zone; system = ZQ.17N; setting = LB agar, overnight; quantity = lethal concentration; result = 2.89 µM
SMILES = CN[C@@H]1[C@H](O)[C@H](NC)[C@H]2O[C@]3(O)[C@H](O[C@@H]2[C@H]1O)O[C@H](C)C[C@@]3(O)CNCc1ccc(Cl)cc1; organism = Neisseria gonorrhoeae; system = ATCC 49226; setting = 40 µg per disc; quantity = inhibition zone diameter; result = 20 to 22 mm

Repeated from above:
SMILES = CC[C@H](C)[C@H](NC(=O)[C@H](CCCCN)NC(=O)[C@H](CCCCN)NC(=O)[C@H](CC(C)C)NC(=O)[C@H](CCCCN)NC(=O)[C@H](CCC(=O)O)NC(=O)[C@H](CCCCN)NC(=O)[C@@H](NC(=O)[C@H](CCCCN)NC(=O)[C@H](CC(N)=O)NC(=O)[C@H](CCCNC(=N)N)NC(=O)[C@H](Cc1ccccc1)NC(=O)[C@H](CCCCN)NC(=O)[C@H](CCCNC(=N)N)NC(=O)[C@H](CC(C)C)NC(=O)[C@H](CCCNC(=N)N)NC(=O)[C@H](CCCCN)NC(=O)[C@H](CCCNC(=N)N)NC(=O)[C@H](CC(C)C)NC(=O)[C@@H](N)CCCNC(=N)N)[C@@H](C)CC)C(=O)NCC(=O)N[C@@H](CCC(N)=O)C(=O)N[C@@H](CCCCN)C(=O)N[C@H](C(=O)N[C@@H](CCC(N)=O)C(=O)NCC(=O)N[C@@H](Cc1ccccc1)C(=O)N[C@H](C(=O)N1CCC[C@H]1C(=O)N[C@@H](CCCCN)C(=O)N[C@@H](CC(C)C)C(=O)N[C@@H](CCC(N)=O)C(=O)N1CCC[C@H]1C(=O)N[C@@H](CO)C(=O)N[C@@H](CCCCN)C(=O)N[C@@H](CCC(N)=O)C(=O)N[C@@H](CO)C(=O)O)C(C)C)[C@@H](C)CC; organism = Salmonella; assay = inhibition zone; system = ZQ.17N; setting = LB agar, overnight; quantity = lethal concentration; result = 2.89 µM
SMILES = CCCCc1ccc(-c2nc(C)c(C(C)=NNC(=N)N)s2)cc1; organism = Staphylococcus aureus; system = VRS5 VRSA; quantity = MBC; result = 1.3 µg/mL (≈ 3.95 µM)
SMILES = O=P(O)(OCCc1ccccc1)Oc1c2c(c(OP(=O)(O)OCCc3ccccc3)c3c1C1CC3c3cc4c(cc31)C1CC4c3ccccc31)C1CC2c2cc3c(cc21)C1CC3c2ccccc21; organism = measles virus; assay = viral infection, flow cytometry; system = A549, vaccine strain GFP; setting = 2 days, virus pre-incubated 30 min 37 °C; quantity = IC50; result = 1.9 µM
